Published values of several laboratories.
Parts stem from different laboratories: compare values within a part only. “And” joins repeats or separate records; there may be more than shown.
UniProt Q92633, sequence (whole entry, looked up): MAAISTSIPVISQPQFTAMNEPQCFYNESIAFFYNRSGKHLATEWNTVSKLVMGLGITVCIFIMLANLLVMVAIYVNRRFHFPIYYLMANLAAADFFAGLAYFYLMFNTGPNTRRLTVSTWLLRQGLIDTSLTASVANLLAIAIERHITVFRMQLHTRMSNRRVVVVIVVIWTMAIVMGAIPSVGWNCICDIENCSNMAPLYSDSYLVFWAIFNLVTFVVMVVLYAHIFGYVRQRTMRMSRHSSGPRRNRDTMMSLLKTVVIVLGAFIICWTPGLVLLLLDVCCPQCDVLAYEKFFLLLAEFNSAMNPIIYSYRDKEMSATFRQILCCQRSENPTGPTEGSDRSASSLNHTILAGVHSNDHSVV
UniProt P23945, sequence (whole entry, looked up): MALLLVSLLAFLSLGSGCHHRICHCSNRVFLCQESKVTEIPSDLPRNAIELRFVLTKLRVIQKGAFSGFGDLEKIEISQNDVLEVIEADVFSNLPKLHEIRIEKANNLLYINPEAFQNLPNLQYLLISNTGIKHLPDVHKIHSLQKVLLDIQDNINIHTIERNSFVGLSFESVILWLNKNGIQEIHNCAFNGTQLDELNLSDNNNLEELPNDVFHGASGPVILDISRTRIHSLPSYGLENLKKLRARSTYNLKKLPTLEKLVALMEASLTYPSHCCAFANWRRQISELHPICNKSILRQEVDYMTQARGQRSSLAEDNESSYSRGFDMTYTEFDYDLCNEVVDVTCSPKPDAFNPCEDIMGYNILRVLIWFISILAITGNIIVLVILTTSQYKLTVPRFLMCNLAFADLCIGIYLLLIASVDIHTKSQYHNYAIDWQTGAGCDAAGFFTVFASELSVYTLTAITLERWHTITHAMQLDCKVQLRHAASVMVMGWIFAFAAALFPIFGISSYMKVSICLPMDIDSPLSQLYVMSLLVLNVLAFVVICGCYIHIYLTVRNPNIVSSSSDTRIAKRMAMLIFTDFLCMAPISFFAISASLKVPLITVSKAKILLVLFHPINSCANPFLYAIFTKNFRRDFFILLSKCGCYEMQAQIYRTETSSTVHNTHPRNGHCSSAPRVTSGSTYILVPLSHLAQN
UniProt P50391, sequence (whole entry, looked up): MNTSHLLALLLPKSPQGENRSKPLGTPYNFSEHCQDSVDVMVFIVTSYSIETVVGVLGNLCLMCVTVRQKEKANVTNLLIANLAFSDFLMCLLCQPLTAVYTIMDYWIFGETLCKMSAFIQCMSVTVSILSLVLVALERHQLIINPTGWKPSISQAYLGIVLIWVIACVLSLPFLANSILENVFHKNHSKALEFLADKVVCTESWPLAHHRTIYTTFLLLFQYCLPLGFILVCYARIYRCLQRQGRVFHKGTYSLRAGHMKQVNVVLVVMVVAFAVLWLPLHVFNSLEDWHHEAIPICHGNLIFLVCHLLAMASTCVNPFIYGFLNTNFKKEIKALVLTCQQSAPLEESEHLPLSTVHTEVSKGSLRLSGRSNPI
UniProt P51677, sequence (whole entry, looked up): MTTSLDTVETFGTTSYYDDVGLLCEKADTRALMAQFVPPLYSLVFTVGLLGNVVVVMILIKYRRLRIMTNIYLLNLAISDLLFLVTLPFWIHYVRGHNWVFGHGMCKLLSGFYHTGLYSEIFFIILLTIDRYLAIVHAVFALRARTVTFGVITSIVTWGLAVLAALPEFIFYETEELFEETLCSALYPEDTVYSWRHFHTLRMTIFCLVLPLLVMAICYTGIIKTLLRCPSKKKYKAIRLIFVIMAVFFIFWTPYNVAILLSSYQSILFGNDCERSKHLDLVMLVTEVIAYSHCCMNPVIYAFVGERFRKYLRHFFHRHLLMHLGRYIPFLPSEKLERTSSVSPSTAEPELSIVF
UniProt Q8IZF5, sequence (whole entry, looked up): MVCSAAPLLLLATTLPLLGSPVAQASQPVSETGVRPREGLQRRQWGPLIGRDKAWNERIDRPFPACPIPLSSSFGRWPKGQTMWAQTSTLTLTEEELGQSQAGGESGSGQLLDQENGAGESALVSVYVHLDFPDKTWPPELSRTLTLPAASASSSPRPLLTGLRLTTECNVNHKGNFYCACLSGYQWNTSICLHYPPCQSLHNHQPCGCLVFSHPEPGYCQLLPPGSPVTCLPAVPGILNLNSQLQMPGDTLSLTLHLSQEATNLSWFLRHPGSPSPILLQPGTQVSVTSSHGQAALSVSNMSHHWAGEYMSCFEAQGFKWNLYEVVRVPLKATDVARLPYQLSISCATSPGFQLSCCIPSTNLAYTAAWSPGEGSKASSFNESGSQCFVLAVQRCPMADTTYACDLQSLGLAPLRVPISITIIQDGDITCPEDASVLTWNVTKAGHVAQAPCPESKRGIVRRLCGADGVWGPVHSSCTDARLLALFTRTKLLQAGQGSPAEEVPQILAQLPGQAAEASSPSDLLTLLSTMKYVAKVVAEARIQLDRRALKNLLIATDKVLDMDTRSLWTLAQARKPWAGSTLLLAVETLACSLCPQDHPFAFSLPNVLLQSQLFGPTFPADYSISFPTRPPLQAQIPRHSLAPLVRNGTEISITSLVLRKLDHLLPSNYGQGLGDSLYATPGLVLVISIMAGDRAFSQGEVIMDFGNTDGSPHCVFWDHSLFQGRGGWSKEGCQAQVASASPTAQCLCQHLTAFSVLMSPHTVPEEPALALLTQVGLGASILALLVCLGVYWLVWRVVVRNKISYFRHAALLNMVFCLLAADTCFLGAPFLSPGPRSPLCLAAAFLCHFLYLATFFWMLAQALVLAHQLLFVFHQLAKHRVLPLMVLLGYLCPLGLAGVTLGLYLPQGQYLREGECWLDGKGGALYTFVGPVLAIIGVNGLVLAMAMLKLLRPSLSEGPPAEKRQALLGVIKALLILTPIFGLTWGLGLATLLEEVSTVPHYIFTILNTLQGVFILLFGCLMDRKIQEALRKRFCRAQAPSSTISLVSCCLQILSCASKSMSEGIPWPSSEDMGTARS
UniProt P29376, sequence (whole entry, looked up): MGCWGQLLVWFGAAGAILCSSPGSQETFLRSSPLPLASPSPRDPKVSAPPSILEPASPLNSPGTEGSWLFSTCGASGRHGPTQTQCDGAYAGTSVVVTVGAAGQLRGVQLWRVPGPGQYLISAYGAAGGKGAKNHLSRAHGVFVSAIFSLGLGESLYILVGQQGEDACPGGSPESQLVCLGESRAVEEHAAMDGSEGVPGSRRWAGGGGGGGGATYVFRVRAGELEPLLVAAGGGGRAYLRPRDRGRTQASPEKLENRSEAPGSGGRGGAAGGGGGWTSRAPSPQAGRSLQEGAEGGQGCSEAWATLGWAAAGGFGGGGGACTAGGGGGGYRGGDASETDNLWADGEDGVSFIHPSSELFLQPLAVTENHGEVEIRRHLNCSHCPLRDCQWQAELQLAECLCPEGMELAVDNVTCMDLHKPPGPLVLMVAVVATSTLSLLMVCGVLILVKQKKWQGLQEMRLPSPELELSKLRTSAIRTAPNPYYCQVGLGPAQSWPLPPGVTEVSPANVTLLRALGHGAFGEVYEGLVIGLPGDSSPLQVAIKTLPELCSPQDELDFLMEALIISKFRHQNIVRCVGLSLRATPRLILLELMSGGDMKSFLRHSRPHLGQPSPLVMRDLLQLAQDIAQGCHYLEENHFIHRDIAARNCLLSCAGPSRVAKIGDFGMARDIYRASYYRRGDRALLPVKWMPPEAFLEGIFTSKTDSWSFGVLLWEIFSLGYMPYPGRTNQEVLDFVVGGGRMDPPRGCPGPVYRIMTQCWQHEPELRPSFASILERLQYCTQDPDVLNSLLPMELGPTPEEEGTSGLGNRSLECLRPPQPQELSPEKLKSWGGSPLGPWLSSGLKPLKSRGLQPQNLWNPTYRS
UniProt P32247, sequence (whole entry, looked up): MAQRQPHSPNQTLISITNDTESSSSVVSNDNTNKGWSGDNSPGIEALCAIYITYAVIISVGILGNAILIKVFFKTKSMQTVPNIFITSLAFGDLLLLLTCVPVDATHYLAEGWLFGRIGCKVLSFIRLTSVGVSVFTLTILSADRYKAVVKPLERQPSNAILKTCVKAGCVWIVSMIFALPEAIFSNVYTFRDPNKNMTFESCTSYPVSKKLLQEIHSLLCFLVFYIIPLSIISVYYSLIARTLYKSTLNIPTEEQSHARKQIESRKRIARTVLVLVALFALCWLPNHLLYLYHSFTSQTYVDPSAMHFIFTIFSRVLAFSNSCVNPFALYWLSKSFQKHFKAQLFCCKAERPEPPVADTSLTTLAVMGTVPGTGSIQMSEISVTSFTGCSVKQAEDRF
UniProt Q9NQ84, sequence (whole entry, looked up): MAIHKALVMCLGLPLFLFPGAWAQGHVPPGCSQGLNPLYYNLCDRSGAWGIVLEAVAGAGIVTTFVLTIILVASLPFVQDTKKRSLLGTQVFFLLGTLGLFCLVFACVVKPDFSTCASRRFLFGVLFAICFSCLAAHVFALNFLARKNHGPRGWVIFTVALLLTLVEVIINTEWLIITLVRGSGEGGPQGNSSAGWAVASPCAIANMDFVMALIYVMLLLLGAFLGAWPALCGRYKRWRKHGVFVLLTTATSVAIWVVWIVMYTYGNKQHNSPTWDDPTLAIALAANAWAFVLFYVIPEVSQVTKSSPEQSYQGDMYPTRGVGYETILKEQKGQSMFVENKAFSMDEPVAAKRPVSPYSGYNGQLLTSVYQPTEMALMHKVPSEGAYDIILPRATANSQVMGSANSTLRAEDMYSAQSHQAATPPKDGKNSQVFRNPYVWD
UniProt Q9H1Y3, sequence (whole entry, looked up): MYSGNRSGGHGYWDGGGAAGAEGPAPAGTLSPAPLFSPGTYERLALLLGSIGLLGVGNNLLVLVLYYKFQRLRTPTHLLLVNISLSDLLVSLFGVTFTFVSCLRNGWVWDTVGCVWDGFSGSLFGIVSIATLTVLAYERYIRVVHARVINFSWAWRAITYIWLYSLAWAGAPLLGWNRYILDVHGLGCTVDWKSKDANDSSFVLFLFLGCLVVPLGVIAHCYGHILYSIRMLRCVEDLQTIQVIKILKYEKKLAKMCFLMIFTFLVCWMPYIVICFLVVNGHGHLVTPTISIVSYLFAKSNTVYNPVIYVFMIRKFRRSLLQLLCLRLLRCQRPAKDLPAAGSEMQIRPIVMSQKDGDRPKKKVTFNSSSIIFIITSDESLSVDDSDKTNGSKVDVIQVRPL

Sample 1
Structure (SMILES): C[C@@H]1CN(c2ccc(-c3cc(C(=O)NCCOCCOCCOCCOCCNC(=O)/C=C/c4[nH]cc(C(=O)N[C@@H](CC(N)=O)c5ccc(F)c(Cl)c5)c4-c4ccc(Cl)cc4F)ccc3F)cc2NC(=O)c2c[nH]c(=O)cc2C(F)(F)F)C[C@H](C)N1C
Method: ATPlite
Endpoint: viability
MV4-11 expressing HiBiT-WDR5; RPMI with 10% FBS; 34.2 nM, 24 h: 117% and 98.1% and 95.3%
MV4-11 expressing HiBiT-WDR5; RPMI with 10% FBS; 585 nM, 24 h: 109% and 116% and 102%
MV4-11; 0.464 µM, 5 days; relative to: DMSO: 89.5% and 72.4% and 102%
MV4-11 expressing HiBiT-WDR5; RPMI with 10% FBS; 10000 nM, 24 h: 110% and 106% and 84%
MV4-11 expressing HiBiT-WDR5; RPMI with 10% FBS; 2 nM, 24 h: 110% and 118% and 101%
MV4-11 expressing HiBiT-WDR5; RPMI with 10% FBS; 3800 nM, 24 h: 102% and 90.1% and 80.3%

Sample 2
SMILES: COc1ccc(-c2c(Nc3ccccn3)[nH]c3c(C4=CCCCC4)c(-c4ccccc4)nn3c2=O)cc1
Species: cancer patients
Sample: plasma
Route: oral
Time: cycle 0 day -3
Setting: single dose
Endpoint: AUC(0-inf), geometric mean
50 mg: 11.9 µg·h/mL
400 mg: 33.9 µg·h/mL
150 mg: 53.9 µg·h/mL

Sample 3
Structure (SMILES): N=C(N)NC(=O)c1cnn(-c2cccc3ncccc23)c1C1CC1
Observed: β-arrestin recruitment
Mode: agonist
Method: PRESTO-Tango
Concentration: 10 µM
Relative to: untreated
Endpoint: fold over basal
NPY4R (Homo sapiens, UniProt P50391): 1
GPRC5C (Homo sapiens, UniProt Q9NQ84): 1.75
Opsin-3 (OPN3, Homo sapiens, UniProt Q9H1Y3): 1.26
BRS3 (Homo sapiens, UniProt P32247): 1.33
FSHR (Homo sapiens, UniProt P23945): 1.54 fold
Adhesion G-protein coupled receptor F3 (ADGRF3, Homo sapiens, UniProt Q8IZF5): 0.83
CCR3 (Homo sapiens, UniProt P51677): 0.86
LPAR1 (Homo sapiens, UniProt Q92633): 0.83

Further values, each from its own experiment
CCOc1nc(NC(=O)Cc2cc(OC)ccc2OC)cc(N)c1C#N — remaining activity (Leukocyte tyrosine kinase receptor (LTK, Homo sapiens, UniProt P29376); enzyme activity, inhibitor, radiometric; 0.5 µM): 97.3%

Excerpt of the above (sample 1):
MV4-11 expressing HiBiT-WDR5; RPMI with 10% FBS; 3800 nM, 24 h: 102% and 90.1% and 80.3%
